# Assay results pooled from the literature.
# Parts stem from different laboratories: compare values within a part only.

# Study 1 — method: RNA Bind-n-Seq; molecule type: RNA; matrix: in vitro; tested at: 365 nM; baseline: no-protein control; direction: higher = stronger binding
# Target: RNA binding protein fox-1 homolog 2, RRM domain, GST-SBP tag (RBFOX2, Homo sapiens, UniProt O43251-10, residues 100-194)
# Notes: natural RNA segment, single round, ends assumed
# Construct (chain): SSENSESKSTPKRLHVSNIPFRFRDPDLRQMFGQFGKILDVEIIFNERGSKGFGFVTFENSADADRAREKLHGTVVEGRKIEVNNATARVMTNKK
Sequence,RBNS enrichment (R)
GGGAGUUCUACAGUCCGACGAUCGCUGGCCAUGAUAUUGCCCCAAAUCCGCCCCACUGAAGUGUUCCCUAAGGAACAGCAUUUCUCUGCUCCUCAGUCAACCCCCGUAGCCUAGAGCAGUGUCACAAGCUUCAUGGAAUUCUCGGGUGCCAA,0.307
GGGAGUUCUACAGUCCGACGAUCGCCCACUGAAGCAGAAGGUUUUUCUCUGGGGGAACCUGUCUCAGUGUUGACUGCAUUGUUGUAGUCUUCCCAAAGUUUGCCCUAUUUUUAAAUUCAUUAUUUUUGUGACAUGGAAUUCUCGGGUGCCAA,0.611
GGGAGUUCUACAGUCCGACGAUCCCACCUUUGUCAUCAGCUUUUCCUCUUUGCCACUGGAUCUUCAUGGAGACAUGGGCAAGCAUUAGUGGCUUCAGAUUGGAGACCAGCCUGGGACUUCCCUGCAGUGAGAGUGGAAUUCUCGGGUGCCAA,0.65
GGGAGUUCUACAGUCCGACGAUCGUGCCUGUCAACUUUGCAGACUGCUUUUGGCUUCUGGAUGCGCUCCUUCAGUACACAUCCUAUGGCGUGACCCCUCCCAGCCUCAGCCAUUCAGGGAACCGGCAGCGCCCUGGAAUUCUCGGGUGCCAA,0.297
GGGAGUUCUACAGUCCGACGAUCGGCCUCCUUCCUCUGCUGGUAUACUCAUGGACUCAUUCACUGCCAAGAUGACCAAAUACUCUACCACACUAACCAAGGAGCCCUCCCUAGCCCUGCAGUUCCCACCUUUGUGGAAUUCUCGGGUGCCAA,0.348
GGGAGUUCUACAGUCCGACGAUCGUCCCGGGGGCUGAACGUGUGGCGUUUGGUUACUGAAGCCUGCUCAGGCGAAGCUGGGUCUUGUGCAUGUUCCCACUGUUUCAUCCUGUCCUCGCCAGGGAUCUGGGUGGUGGAAUUCUCGGGUGCCAA,5.19
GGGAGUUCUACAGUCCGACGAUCGUCUGGGCCUGCUUAGCAAGAACCGCUUUAUUCCGGUUCCCAUACCACAUUCAGCCGGCCAGGAGACGAGCACUAGAGGAAAGCAGUAGGAAGGGACUCUAGGAGGUGGCUGGAAUUCUCGGGUGCCAA,0.55
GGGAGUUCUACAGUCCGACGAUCGUAGCUGAAUAAGGGGUCAGAACUUCUGAAACCAGAGAUCUGUAAUCAUCUCUAUUGGCCUGGGGUGCCUGUGCUAUAAAUGAGUUUCUUCACAUGAAAAACACAGCCAGUGGAAUUCUCGGGUGCCAA,0.224
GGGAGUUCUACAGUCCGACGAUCCUCCGAGUUUGUGUGUCUAGAACUUGGAUGUUUCCAUAAGGAAAACAGAACUGUGGUAUUGUUUCGAGAAGAAUUAAGUAAAGUUUAAUCUUUCUGAACUCCUGACUUACUGGAAUUCUCGGGUGCCAA,0.731
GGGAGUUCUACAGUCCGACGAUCGUGUGGGACUGGAGACAUCAAUGUAUCUGACUUCAAAGCCCAUGCUGUAGUGGUUGGUGGAUCCUGGCAUUUCAGAGAAAAGGUCAUGAGGUGGUUUUGGGCUGUGGUUUUGGAAUUCUCGGGUGCCAA,0.747
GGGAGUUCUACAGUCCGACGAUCGCAUAAUUCGGCUAUAAAUGUAGCAAUGCUUGGAAAGGUAGUCAUCAAAUGAGACUAUUUGAGGGGACUAUUUGAAAUGAUUCUGGUAUUUCUUUUGGUAUCUUUCUUCCUGGAAUUCUCGGGUGCCAA,2

# Study 2 — method: protein binding microarray; molecule type: double-stranded DNA, one strand shown; matrix: in vitro; tested at: not given; baseline: not given; direction: higher = stronger binding
# Target: Histone acetyltransferase KAT6A, winged helix 1, GST fusion (KAT6A, Homo sapiens, UniProt Q92794, residues 1-85)
# Notes: 8-mer, flanks averaged, mean of 2 arrays, mostly near background
# Residues (chain): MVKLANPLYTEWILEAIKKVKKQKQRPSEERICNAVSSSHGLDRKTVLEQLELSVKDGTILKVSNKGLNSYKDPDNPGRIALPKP
Sequence,E-score
ACTACCCT,-0.149
GACCCCTC,-0.152
ATAATCGG,0.0357
AAGACCTC,-0.00821
ACCTCAAT,-0.265
AGCGTTTA,0.178
CCTAAATA,-0.00796
ATGGTTGC,-0.0239
AACATGCT,-0.0874
ATAGATAA,-0.0874
TGAAGCAA,-0.221
CCTGTTCA,-0.254
TCCACCGA,0.00296
CATATCTA,-0.0375
GACGACCA,-0.23
AATTTACG,0.0143
AATTAGTA,-0.0819
CGCTTTAC,0.235
ATCACAAG,-0.109
ATACACAG,-0.0564
CCTAGAGG,-0.0343
ATGTTATA,0.00219
ACCGACAC,0.0206
CCGTGAGG,0.191
ACGACTAT,-0.0523

# Study 3 — method: protein-binding microarray; molecule type: double-stranded DNA, one strand shown; matrix: in vitro; tested at: 2540 nM top; notes: 60-bp whole probe; added: salmon DNA 0.4 mg/ml; baseline: random background probes; direction: higher = stronger binding; shared flanks, not repeated: GCCTAGCAC … GTCTTGATTCGCTTGACGCTGCTG
# Target: Interferon regulatory factor 3, full length, phosphomimetic (IRF3, Homo sapiens, UniProt Q14653, residues 1-427, S386D/S396D/S398D/S402D/T404D/S405D)
# Target sequence (chain): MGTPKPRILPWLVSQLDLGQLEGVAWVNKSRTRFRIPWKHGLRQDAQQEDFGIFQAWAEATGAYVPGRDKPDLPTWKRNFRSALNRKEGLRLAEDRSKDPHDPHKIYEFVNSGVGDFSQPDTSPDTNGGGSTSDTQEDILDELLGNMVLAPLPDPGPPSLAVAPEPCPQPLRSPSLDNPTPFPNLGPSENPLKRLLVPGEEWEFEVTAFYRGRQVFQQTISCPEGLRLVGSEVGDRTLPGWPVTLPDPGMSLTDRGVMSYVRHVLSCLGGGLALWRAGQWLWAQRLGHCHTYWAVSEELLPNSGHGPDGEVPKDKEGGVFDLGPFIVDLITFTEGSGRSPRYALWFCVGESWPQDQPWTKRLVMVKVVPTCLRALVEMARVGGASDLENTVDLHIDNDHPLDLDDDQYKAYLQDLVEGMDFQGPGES
Sequence,fitted relative affinity [z-score]
GCCAAACACCCACATTCACCGTGCTAG,0.429
TTAGGTCTCGGTCTCGGGTAGTGCTAG,0.893
TAGTTTCTAAAACTCTTTATGTGCTAG,2.17
TTAGAACTGGTGTTTCGATTAGTGCTA,1.28
GACGAGATCAGTATCGAGACGTGCTAG,1.04
TAAGAACTGAGTCTCGATTAGTGCTAG,-0.56
GACGAACTGAGCATCGAGACGTGCTAG,-0.201
TCAAATTTCCCACTTTCACTGTGCTAG,2.52
GATGAAGATGTAGAACTTTTGTGCTAG,-0.557
GAAATTTTCCCCTACTGTATGTGCTAG,1.63
TTAGGTATCGGGCTGGGTTAGTGCTAG,0.152

# Study 4 — method: universal PBM; molecule type: double-stranded DNA, one strand shown; matrix: in vitro; tested at: 600 nM; direction: higher = stronger binding
# Target: Sal-like protein 4, full length isoform A (SALL4, Homo sapiens, UniProt Q9UJQ4, residues 1-1053)
# Sequence of UniProt Q9UJQ4 (whole entry, looked up): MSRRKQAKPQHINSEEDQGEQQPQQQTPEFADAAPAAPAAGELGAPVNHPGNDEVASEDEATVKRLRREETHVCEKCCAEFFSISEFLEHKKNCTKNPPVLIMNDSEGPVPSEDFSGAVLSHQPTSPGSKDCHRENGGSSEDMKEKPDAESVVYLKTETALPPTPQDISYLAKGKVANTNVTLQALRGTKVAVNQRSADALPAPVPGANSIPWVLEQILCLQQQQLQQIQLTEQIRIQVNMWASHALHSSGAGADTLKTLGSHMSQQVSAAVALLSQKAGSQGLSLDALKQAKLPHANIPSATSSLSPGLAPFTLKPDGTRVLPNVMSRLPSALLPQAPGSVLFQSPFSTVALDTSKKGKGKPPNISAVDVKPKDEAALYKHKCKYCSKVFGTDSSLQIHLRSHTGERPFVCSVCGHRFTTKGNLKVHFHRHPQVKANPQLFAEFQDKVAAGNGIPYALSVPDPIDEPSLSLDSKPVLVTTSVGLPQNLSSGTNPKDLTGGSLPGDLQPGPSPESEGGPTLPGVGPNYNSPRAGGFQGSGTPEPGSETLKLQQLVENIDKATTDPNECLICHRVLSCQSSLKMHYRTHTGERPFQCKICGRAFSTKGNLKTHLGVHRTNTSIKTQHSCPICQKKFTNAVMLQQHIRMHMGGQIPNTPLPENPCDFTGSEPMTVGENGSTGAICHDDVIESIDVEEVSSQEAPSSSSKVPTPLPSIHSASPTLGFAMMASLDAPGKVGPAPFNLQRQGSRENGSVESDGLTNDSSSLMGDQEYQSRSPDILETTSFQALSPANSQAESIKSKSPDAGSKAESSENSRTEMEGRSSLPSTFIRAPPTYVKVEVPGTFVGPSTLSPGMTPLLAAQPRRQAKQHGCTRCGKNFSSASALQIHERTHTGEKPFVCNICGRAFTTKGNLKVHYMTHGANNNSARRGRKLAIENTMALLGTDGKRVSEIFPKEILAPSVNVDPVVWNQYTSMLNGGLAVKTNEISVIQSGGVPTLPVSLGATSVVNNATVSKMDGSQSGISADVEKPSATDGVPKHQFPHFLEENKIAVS
# Notes: 8-mer, flanks averaged, mean of replicates
Sequence,E-score
GCCCGTCA,-0.317
ACGCGCAG,-0.323
GCCGGCTA,-0.214
CCTTTGCG,-0.0153
CTCAACGC,-0.334
CTCTCCGA,-0.225
CAAACTCA,0.0489
AAGAACGT,0.143
ACCGCAAC,-0.0455
CATCCTGG,-0.137
ACTTCATA,0.326
CCTAGAGG,-0.191
AGCCTCCG,-0.409
AACAGGGC,-0.161

# Excerpt of the above (study 1):
Sequence,RBNS enrichment (R)
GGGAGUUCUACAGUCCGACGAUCGCUGGCCAUGAUAUUGCCCCAAAUCCGCCCCACUGAAGUGUUCCCUAAGGAACAGCAUUUCUCUGCUCCUCAGUCAACCCCCGUAGCCUAGAGCAGUGUCACAAGCUUCAUGGAAUUCUCGGGUGCCAA,0.307
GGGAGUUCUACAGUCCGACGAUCGUAGCUGAAUAAGGGGUCAGAACUUCUGAAACCAGAGAUCUGUAAUCAUCUCUAUUGGCCUGGGGUGCCUGUGCUAUAAAUGAGUUUCUUCACAUGAAAAACACAGCCAGUGGAAUUCUCGGGUGCCAA,0.224
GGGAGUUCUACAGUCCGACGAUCGCAUAAUUCGGCUAUAAAUGUAGCAAUGCUUGGAAAGGUAGUCAUCAAAUGAGACUAUUUGAGGGGACUAUUUGAAAUGAUUCUGGUAUUUCUUUUGGUAUCUUUCUUCCUGGAAUUCUCGGGUGCCAA,2
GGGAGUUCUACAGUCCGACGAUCGUGUGGGACUGGAGACAUCAAUGUAUCUGACUUCAAAGCCCAUGCUGUAGUGGUUGGUGGAUCCUGGCAUUUCAGAGAAAAGGUCAUGAGGUGGUUUUGGGCUGUGGUUUUGGAAUUCUCGGGUGCCAA,0.747
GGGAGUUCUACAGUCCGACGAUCGUGCCUGUCAACUUUGCAGACUGCUUUUGGCUUCUGGAUGCGCUCCUUCAGUACACAUCCUAUGGCGUGACCCCUCCCAGCCUCAGCCAUUCAGGGAACCGGCAGCGCCCUGGAAUUCUCGGGUGCCAA,0.297
